Measured values of several laboratories.
Each line is one published result; not all experiments were run side by side. ± gives the spread as reported.

| SMILES | organism | test | system | conditions | how to read | measurement | value |
| --- | --- | --- | --- | --- | --- | --- | --- |
| COc1cc(/C=C/c2cc(/C=C/c3ccc(O)c(OC)c3)n(C(N)=O)n2)ccc1O | Spodoptera frugiperda | cell growth or viability, MTT | Sf9 | 100 µM, 72 h | – | inhibition | 75.4% |
| CCCc1ccc2c(c1O)C(c1ccc(OC)c(OC)c1OC)OC2=O (stereo not shown) | Naegleria fowleri | parasite growth, resazurin | ATCC30808 | 48 h | – | IC50 | 59 µM |
| Cc1ccc2nc(-c3ccccc3)cn2c1 | Trypanosoma cruzi | – | 3T3 host cells, Tulahuen beta-galactosidase | 6 days | – | EC50 | > 20 µM |
| C[C@@H](c1ccn(Cc2ccc(C(C)(C)C)cc2)n1)[C@](O)(Cn1cnnn1)c1ccc(F)cc1F | Candida tropicalis | growth, broth microdilution | 2718 | 24 h, 30 °C, ≥50% inhibition | – | MIC | < 0.008 µg/mL |
| Fc1ccc2c(c1)c1nc3ccc(Br)cc3c-1cn2Cc1cn(-c2ccccc2I)nn1 | Giardia duodenalis trophozoites | UHPLC-Q-TOF-MS, item: C16 sphinganine | – | IC50, 0.111 h | relative to: 0.25% DMSO | fold change | 6.83 |
| CN(Cc1cc(N(C)C)c2c(c1O)C(=O)C1=C(O)[C@]3(O)C(=O)C(C(N)=O)=C(O)[C@@H](N(C)C)[C@@H]3C[C@@H]1C2)CC(C)(C)C | Streptococcus pneumoniae | – | ATCC 700905, Tet M ribosome protection | – | – | MIC | 0.125 µg/mL |
| COc1ccc(-n2nc3c(=O)n(-c4cccc(C(=O)NC(C)C)c4)nc(C)c3c2C)cc1 | Zika virus | – | Vero, MR766 | – | relative to: CC50 over EC50 | selectivity index | 2.9 |
| CC[C@H](C)[C@H](NC(=O)[C@H](CCCCN)NC(=O)[C@H](CC(N)=O)NC(=O)[C@H](Cc1c[nH]c2ccccc12)NC(=O)[C@H](Cc1ccccc1)NC(=O)[C@H](CCCCN)NC(=O)[C@H](CCCCNC(=N)N)NC(=O)[C@H](CC(C)C)NC(=O)[C@H](Cc1c[nH]c2ccccc12)NC(=O)[C@H](CCCCN)NC(=O)[C@H](CCCCNC(=N)N)NC(=O)[C@H](CC(C)C)NC(=O)CNC(C)=O)C(=O)N[C@@H](CCCCN)C(=O)N[C@@H](CCCCNC(=N)N)C(N)=O | all bacteria tested | – | – | – | – | geometric mean MIC | 3.51 µM |
| Cc1ccc(-c2nc3ccc(C)cn3c2CN2CCN(c3cccc(C(F)(F)F)c3)CC2)cc1 | Trypanosoma cruzi | – | 3T3 host cells, Tulahuen beta-galactosidase | 6 days | – | EC50 | 1.5 µM |
| CNCc1cc(N(C)C)c2c(c1O)C(=O)C1=C(O)[C@]3(O)C(=O)C(C(N)=O)=C(O)[C@@H](N(C)C)[C@@H]3C[C@@H]1C2 | Streptococcus pneumoniae | – | ATCC 700905, Tet M ribosome protection | – | – | MIC | 2 µg/mL |
| CC1(C)CC[C@]2(CO)CC[C@]3(C)C(=CC[C@@H]4[C@@]5(C)CCCNC(C)(C)[C@@H]5CC[C@]43C)[C@@H]2C1 | Human cytomegalovirus | cytopathic effect | HFF, AD169 | – | – | EC90 | > 1.2 µM |
| Cc1ccc(-c2cn([C@@H]3O[C@H](CO)[C@@H](O)[C@H]3O)c3ncnc(N)c23)cc1Cl | Trichomonas vaginalis | resorufin | G3, metronidazole-sensitive | 24 h + 2 h, 2% O2 | – | EC50 | 0.058 ± 0.077 µM |
| CCC1(C)CCN(Cc2cc(N(C)C)c3c(c2O)C(=O)C2=C(O)[C@]4(O)C(=O)C(C(N)=O)=C(O)[C@@H](N(C)C)[C@@H]4C[C@@H]2C3)CC1 | Streptococcus pneumoniae | – | 157E | 50% mouse serum | – | MIC | 0.25 µg/mL |
| CC[C@@H](C)[C@@H](NC(=O)[C@@H](C)NC(=O)[C@@H](CCCCN)NC(=O)[C@@H](CC(C)C)NC(=O)[C@@H](CC(C)C)NC(=O)[C@H](NC(=O)[C@@H](CCCCN)NC(=O)[C@@H](CC(C)C)NC(=O)[C@@H](C)NC(=O)[C@@H](CCCCN)NC(=O)[C@@H](CCCCN)NC(=O)[C@@H](CCCCN)NC(=O)[C@@H](C)NC(=O)[C@@H](CCCCN)NC(=O)[C@@H](CO)NC(=O)[C@@H](Cc1ccccc1)NC(=O)[C@H](NC(=O)[C@@H](CCCCN)NC(=O)[C@@H](CC(C)C)NC(=O)[C@@H](Cc1ccccc1)NC(=O)[C@@H](CO)NC(=O)[C@@H](CCCCN)NC(=O)[C@@H](Cc1c[nH]c2ccccc12)NC(=O)[C@@H](CCCCN)NC(C)=O)[C@H](C)O)[C@H](C)O)C(=O)N[C@H](CO)C(=O)N[C@H](CCCCN)C(N)=O | Acinetobacter baumannii | – | 759, Mueller-Hinton broth | 24 h, 37 °C | – | MIC | 0.7 µM |
| COc1ccc(Nc2c(C#N)cnc3ccc(Cl)cc23)cc1 | Trypanosoma cruzi | growth | cardiomyocytes, Y, amastigote | 72 h | – | IC50 | 12 µM |
| COCCNCc1cc(N(C)C)c2c(c1O)C(=O)C1=C(O)[C@]3(O)C(=O)C(C(N)=O)=C(O)[C@@H](N(C)C)[C@@H]3C[C@@H]1C2 | Streptococcus pneumoniae | microbial growth, broth dilution | – | – | – | MIC | 0.5 µg/mL |

Excerpt of the above:
| SMILES | organism | test | system | conditions | how to read | measurement | value |
| --- | --- | --- | --- | --- | --- | --- | --- |
| Cc1ccc2nc(-c3ccccc3)cn2c1 | Trypanosoma cruzi | – | 3T3 host cells, Tulahuen beta-galactosidase | 6 days | – | EC50 | > 20 µM |
| C[C@@H](c1ccn(Cc2ccc(C(C)(C)C)cc2)n1)[C@](O)(Cn1cnnn1)c1ccc(F)cc1F | Candida tropicalis | growth, broth microdilution | 2718 | 24 h, 30 °C, ≥50% inhibition | – | MIC | < 0.008 µg/mL |
